Experimental data gathered from unrelated publications.
Every numbered part comes from another study and shows a few of its results, in no order.
Chain of UniProt Q96PY6 (whole entry, looked up): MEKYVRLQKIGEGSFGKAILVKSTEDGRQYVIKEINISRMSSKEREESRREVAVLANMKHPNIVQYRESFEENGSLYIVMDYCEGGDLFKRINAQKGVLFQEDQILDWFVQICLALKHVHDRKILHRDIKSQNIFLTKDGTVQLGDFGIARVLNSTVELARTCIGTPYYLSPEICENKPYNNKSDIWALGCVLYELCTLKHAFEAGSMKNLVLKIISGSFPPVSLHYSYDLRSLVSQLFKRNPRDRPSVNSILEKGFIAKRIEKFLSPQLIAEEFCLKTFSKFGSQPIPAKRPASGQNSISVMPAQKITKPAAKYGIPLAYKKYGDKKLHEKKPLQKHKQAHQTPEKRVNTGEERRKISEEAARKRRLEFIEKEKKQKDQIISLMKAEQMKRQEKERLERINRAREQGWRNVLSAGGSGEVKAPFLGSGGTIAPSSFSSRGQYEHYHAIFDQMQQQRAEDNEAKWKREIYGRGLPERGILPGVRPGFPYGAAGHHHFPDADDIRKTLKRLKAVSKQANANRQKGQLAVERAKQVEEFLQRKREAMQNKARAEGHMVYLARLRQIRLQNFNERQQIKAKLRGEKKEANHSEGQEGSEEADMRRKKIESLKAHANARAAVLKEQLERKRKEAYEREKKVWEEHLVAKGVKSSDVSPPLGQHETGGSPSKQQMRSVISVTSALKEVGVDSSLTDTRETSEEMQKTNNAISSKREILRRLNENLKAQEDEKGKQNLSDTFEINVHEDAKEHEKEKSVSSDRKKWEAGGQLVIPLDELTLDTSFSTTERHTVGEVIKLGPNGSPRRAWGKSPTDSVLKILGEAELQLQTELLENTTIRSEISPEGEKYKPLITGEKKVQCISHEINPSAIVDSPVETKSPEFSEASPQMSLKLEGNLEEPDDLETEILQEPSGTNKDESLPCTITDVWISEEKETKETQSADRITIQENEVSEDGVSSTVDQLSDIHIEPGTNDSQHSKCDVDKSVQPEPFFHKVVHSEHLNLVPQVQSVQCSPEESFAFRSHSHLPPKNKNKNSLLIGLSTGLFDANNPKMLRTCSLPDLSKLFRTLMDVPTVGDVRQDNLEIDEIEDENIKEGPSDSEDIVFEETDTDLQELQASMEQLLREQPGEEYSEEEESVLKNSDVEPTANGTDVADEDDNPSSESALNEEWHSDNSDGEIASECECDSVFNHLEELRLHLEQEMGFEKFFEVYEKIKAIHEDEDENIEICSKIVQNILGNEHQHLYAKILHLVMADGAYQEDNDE
Chain of UniProt Q15835 (whole entry, looked up): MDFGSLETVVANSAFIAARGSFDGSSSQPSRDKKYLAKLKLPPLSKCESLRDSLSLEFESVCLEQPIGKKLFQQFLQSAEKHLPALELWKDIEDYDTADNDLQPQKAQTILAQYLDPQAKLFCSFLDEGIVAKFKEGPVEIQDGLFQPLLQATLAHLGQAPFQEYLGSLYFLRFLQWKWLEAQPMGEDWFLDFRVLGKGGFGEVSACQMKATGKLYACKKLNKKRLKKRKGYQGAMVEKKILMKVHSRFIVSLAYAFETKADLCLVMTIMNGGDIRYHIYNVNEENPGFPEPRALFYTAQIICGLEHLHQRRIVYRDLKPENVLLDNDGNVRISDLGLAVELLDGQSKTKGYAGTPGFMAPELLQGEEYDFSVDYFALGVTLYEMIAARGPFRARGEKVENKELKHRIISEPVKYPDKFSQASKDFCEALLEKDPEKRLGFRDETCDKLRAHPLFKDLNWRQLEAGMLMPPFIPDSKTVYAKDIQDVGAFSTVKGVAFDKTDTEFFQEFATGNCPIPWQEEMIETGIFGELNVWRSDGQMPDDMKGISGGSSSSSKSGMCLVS
Chain of UniProt O43318 (whole entry, looked up): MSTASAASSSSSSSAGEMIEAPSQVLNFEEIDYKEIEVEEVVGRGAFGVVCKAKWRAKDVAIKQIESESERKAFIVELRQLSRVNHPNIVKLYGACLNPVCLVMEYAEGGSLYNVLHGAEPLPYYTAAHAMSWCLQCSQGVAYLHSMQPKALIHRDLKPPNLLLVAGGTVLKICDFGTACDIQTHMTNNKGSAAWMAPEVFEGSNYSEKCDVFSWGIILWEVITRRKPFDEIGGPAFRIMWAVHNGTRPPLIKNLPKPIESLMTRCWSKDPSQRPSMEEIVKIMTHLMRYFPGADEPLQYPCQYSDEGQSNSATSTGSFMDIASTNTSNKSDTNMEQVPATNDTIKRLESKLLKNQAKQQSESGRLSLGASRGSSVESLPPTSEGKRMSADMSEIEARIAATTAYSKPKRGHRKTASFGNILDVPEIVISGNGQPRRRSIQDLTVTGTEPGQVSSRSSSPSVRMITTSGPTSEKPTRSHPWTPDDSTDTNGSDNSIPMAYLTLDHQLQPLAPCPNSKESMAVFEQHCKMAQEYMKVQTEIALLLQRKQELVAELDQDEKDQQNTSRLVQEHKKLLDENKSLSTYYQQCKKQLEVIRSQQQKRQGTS
Chain of UniProt P00519 (whole entry, unmodified, looked up): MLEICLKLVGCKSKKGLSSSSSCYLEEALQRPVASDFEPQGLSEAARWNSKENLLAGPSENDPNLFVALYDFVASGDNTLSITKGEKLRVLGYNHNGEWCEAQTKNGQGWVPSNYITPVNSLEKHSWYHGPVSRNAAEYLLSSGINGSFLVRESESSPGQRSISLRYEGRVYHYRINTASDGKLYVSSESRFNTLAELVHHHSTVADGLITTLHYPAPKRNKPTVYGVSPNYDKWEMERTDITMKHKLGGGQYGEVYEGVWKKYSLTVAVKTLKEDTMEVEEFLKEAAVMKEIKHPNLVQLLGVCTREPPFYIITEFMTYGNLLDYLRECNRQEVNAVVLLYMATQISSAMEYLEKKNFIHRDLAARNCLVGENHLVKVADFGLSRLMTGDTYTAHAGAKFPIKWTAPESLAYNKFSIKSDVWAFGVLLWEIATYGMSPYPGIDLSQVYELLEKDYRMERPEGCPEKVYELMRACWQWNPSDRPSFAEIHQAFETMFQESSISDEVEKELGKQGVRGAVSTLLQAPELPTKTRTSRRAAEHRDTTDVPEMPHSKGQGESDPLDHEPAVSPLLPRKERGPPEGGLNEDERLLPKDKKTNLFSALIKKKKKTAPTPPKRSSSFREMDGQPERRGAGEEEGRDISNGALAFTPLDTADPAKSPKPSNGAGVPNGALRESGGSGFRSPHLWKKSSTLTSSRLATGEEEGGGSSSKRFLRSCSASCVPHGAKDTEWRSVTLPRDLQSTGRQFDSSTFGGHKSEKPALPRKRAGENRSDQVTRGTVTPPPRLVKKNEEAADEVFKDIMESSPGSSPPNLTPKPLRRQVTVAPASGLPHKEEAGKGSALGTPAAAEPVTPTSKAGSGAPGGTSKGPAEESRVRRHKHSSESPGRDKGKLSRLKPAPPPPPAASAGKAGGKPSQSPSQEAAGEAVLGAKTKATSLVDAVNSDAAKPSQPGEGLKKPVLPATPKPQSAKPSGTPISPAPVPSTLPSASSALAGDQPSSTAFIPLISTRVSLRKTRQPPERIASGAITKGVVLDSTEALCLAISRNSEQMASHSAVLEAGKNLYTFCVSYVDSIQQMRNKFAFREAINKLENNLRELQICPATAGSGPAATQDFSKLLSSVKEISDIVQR
Chain of UniProt Q02763 (whole entry, looked up): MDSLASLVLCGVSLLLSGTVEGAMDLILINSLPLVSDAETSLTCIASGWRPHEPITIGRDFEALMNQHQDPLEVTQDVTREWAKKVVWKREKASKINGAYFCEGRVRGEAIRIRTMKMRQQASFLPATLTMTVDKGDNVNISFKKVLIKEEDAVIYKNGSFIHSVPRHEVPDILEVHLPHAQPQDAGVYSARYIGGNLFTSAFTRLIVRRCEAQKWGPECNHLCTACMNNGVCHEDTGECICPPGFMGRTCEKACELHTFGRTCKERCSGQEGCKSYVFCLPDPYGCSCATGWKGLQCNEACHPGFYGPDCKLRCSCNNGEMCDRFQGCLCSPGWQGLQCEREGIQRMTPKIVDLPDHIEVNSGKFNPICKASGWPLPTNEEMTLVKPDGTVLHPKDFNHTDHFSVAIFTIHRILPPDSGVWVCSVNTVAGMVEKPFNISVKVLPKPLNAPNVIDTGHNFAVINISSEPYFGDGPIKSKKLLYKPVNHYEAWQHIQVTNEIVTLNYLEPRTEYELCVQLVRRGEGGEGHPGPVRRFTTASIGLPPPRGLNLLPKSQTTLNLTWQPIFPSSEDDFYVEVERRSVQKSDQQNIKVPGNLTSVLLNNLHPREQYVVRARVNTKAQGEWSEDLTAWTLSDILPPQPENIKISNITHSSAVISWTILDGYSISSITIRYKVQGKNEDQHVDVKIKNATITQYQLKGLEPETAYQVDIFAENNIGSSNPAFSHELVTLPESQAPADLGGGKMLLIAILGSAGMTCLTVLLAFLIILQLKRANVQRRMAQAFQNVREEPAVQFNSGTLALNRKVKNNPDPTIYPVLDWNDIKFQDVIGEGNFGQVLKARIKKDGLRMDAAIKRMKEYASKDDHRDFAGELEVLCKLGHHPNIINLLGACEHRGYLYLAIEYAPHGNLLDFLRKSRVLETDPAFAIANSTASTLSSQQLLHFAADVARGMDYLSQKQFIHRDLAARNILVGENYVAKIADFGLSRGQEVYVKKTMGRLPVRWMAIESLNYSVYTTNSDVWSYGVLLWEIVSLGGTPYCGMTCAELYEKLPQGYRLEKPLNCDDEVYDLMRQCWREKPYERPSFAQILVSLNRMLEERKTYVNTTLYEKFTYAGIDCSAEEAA

Block 1
Target: Tyrosine-protein kinase TXK (TXK, Homo sapiens, UniProt P42681)
Read-out: enzyme activity
Mode: inhibitor
Tested at: 0.5 µM
Reference: control
Target sequence (P42681 1-527): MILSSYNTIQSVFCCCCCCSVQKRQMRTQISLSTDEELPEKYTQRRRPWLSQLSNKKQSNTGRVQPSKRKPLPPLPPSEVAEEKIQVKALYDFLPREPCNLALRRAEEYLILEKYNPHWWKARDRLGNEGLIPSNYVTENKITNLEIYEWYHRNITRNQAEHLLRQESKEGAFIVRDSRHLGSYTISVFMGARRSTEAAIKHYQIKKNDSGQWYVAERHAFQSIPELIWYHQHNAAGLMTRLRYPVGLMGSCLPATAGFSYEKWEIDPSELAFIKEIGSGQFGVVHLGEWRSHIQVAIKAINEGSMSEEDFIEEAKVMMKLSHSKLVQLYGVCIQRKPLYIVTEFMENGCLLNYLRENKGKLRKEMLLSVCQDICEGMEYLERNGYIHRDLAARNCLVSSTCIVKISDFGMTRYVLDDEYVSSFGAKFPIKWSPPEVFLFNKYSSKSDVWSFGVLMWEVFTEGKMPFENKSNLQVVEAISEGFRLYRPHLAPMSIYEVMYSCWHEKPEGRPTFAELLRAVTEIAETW
| Structure (SMILES) | remaining activity [%] |
| --- | --- |
| OCC(O)CCON=C1C(c2c(O)[nH]c3ccccc23)=Nc2ccccc21 (stereo not shown) | 25.6 |
| Nc1[nH]nc2nc3ccccc3nc12 | 97.6 |
| COc1ccc(OC)c2c(=S)c3ccccc3[nH]c12 | 101 |
| COc1cc2nccc(Oc3ccc(NC(=S)NC(=O)c4ccccc4C)cc3)c2cc1OC | 66.9 |
| CN(C)c1ccc(C=C2C(=O)Nc3ccccc32)cc1 | 96.1 |
| CCOC(=O)c1c(C)[nH]c(/C=C2\C(=O)Nc3ccccc32)c1C | 96.1 |
| O=C(CCCc1ccc(-c2ccccc2F)cc1)Nc1ccc(O)cc1 | 97.7 |
| Cc1ccc(NC(=O)c2ccc(CN3CCN(C)CC3)cc2)cc1Nc1nc(-c2cccnc2)cs1 | 101 |
| COc1cc2ncnc(Nc3ccc(Oc4ccccc4)cc3)c2cc1OC | 78 |
| N#CC(C#N)=C(N)/C(C#N)=C/c1ccc(O)cc1 | 100 |
| COc1cc2ncnc(Nc3ccc(F)c(Cl)c3)c2cc1OCCCN1CCOCC1 | 83.2 |
| Cn1c2ccccc2c2c3c(c4c5ccccc5n(CCC#N)c4c21)CNC3=O | 6.39 |
| O=S(=O)(c1cccc2cnccc12)N1CCCNCC1 | 84.2 |
| CC(C)[C@H](CO)Nc1nc(Nc2cc(N)cc(Cl)c2)c2ncn(C(C)C)c2n1 | 42.5 |

Block 2
Target: Prothrombin, mature alpha-thrombin (F2, Homo sapiens, UniProt P00734)
Method: aptamer microarray, sandwich
Molecule type: DNA with 2'F-ANA
Medium: in vitro
Tested at: 200 nM
Setting: whole 15-mer aptamer, many near background
Together with: Cy3 exosite-II aptamer, 400 nM
Direction: higher = stronger binding
Sequence: GGTTGGTGTGGTTGG
| Modification | mean fluorescence intensity [a.u.] |
| --- | --- |
| 2'F-ANA at 2 3 4 6 9 10 11 12 14 15 | 160 |
| 2'F-ANA at 1 5 6 7 9 12 14 | 44 |
| 2'F-ANA at 3 5 10 11 15 | 58.4 |
| 2'F-ANA at 2 4 6 9 11 15 | 180 |
| 2'F-ANA at 2 6 7 9 10 11 13 15 | 98.2 |
| 2'F-ANA at 2 3 4 7 8 10 11 12 14 | 192 |
| 2'F-ANA at 4 5 6 10 12 13 14 15 | 48 |
| 2'F-ANA at 2 4 5 7 8 10 13 14 15 | 46.5 |

Block 3
SMILES: O=C(O)[C@@H]1[C@@H](Cn2nnc3ccccc3c2=O)CC[C@H]1C(=O)c1ccc(OCCC2CCOCC2)cc1
Tested at: 1 µM
| target | read-out | method | remaining binding [%] |
| --- | --- | --- | --- |
| Angiopoietin-1 receptor (TEK, Homo sapiens, UniProt Q02763) | cell-free assay | competition with immobilised ligand | 100 |
| Epidermal growth factor receptor (EGFR, Homo sapiens, UniProt P00533, del752-759) | cell-free assay | competition with immobilised ligand | 53 |
| Tyrosine-protein kinase receptor TYRO3 (TYRO3, Homo sapiens, UniProt Q06418) | cell-free assay | competition with immobilised ligand | 100 |
| Phosphatidylinositol 4,5-bisphosphate 3-kinase catalytic subunit alpha isoform (PIK3CA, Homo sapiens, UniProt P42336, E542K) | cell-free assay | competition with immobilised ligand | 62 |
| Tyrosine-protein kinase ABL1, phosphorylated (ABL1, Homo sapiens, UniProt P00519, F317I) | binding |  | 100 |
| Rhodopsin kinase GRK1 (GRK1, Homo sapiens, UniProt Q15835) | cell-free assay | competition with immobilised ligand | 100 |
| Vascular endothelial growth factor receptor 3 (FLT4, Homo sapiens, UniProt P35916) | cell-free assay | competition with immobilised ligand | 100 |
| Serine/threonine-protein kinase Nek1 (NEK1, Homo sapiens, UniProt Q96PY6) | cell-free assay | competition with immobilised ligand | 100 |
| Mitogen-activated protein kinase kinase kinase 7 (MAP3K7, Homo sapiens, UniProt O43318) | cell-free assay | competition with immobilised ligand | 86 |
| Fibroblast growth factor receptor 3 (FGFR3, Homo sapiens, UniProt P22607) | cell-free assay | competition with immobilised ligand | 100 |

Block 4
Target: PABPC1L2, full length, GST fusion (mouse, UniProt A0ABA7IW68)
Method: RNAcompete
Molecule type: RNA
Medium: in vitro
Tested at: 20 nM
Setting: 7-mer, probes averaged, single round
Reference: mean of 7-mers
Direction: higher = stronger binding
Target sequence (chain): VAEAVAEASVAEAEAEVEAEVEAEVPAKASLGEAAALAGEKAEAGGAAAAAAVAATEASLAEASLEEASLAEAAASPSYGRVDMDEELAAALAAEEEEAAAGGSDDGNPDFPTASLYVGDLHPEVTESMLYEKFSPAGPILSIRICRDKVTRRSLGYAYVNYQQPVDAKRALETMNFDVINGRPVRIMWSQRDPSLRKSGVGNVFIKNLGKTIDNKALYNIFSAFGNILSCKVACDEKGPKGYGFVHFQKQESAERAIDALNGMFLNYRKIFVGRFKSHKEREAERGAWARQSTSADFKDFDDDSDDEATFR
| Sequence | 7-mer Z-score |
| --- | --- |
| CGGUAGC | -0.0319 |
| AAUCCCA | 0.0334 |
| AGCAAGC | -0.0228 |
| GGGUAAG | 0.193 |
| UGACAUA | -0.0953 |
| AGUUCCG | -0.237 |
| GUCCGCA | -0.423 |
| GACCACA | -0.0808 |
